{"data": "Measured values from different studies", "note": "Parts stem from different laboratories: compare values within a part only."}
{"data": "Block 1", "target": "Interferon regulatory factor 5, full length, phosphomimetic (IRF5, Homo sapiens, UniProt Q13568-2, residues 1-514, S451D/S453D/S456D/S462D)", "technique": "protein-binding microarray", "molecule type": "double-stranded DNA, one strand shown", "matrix": "in vitro", "tested at": "940 nM top", "setting": "60-bp whole probe", "added": "salmon DNA 0.4 mg/ml", "relative to": "random background probes", "reading": "higher = stronger binding", "constant ends, left off below": "GCCTAGCAC … GTCTTGATTCGCTTGACGCTGCTG"}
{"Oligonucleotide": "GACGGTATCGGTAGCGGGACGTGCTAG", "fitted relative affinity [z-score]": 7.66}
{"Oligonucleotide": "GACGGTTTCGGGTATCTGGACGTGCTA", "fitted relative affinity [z-score]": 9.27}
{"Oligonucleotide": "ATAGGTATCGGGTTTCGGTTAGTGCTA", "fitted relative affinity [z-score]": 7.87}
{"Oligonucleotide": "TCACACATGCATCTCCCACTGTGCTAG", "fitted relative affinity [z-score]": 0.597}
{"Oligonucleotide": "TCAGTTTCCTTCCTCTTACTGTGCTAG", "fitted relative affinity [z-score]": 3}
{"Oligonucleotide": "CTCTGTTTATGTCTGGGTATGTGCTAG", "fitted relative affinity [z-score]": 0.52}
{"Oligonucleotide": "TTAGGACTGCGTCTCGGTTAGTGCTAG", "fitted relative affinity [z-score]": 0.667}
{"Oligonucleotide": "TTAGGACTCGACACTGGGTTAGTGCTA", "fitted relative affinity [z-score]": -0.527}
{"Oligonucleotide": "GGCGGTTTCCTTCTCCTGACGTGCTAG", "fitted relative affinity [z-score]": 2.31}
{"Oligonucleotide": "TACGAACTGAGTTTCGAGACGTGCTAG", "fitted relative affinity [z-score]": 3.7}
{"Oligonucleotide": "TCACCTCTGGGATCCCAGACTGTGCTA", "fitted relative affinity [z-score]": -0.153}
{"Oligonucleotide": "GACGGTATCGACACTGGGGACGTGCTA", "fitted relative affinity [z-score]": 3.85}
{"Oligonucleotide": "TCACATATAATTTTGTCACTGTGCTAG", "fitted relative affinity [z-score]": 0.361}
{"Oligonucleotide": "TTAGAACTGAGTATTGATTAGTGCTAG", "fitted relative affinity [z-score]": 0.198}
{"Oligonucleotide": "TTAGGTTTCGGGTTTCCGTTAGTGCTA", "fitted relative affinity [z-score]": 10.2}
{"Oligonucleotide": "CATTTTATGGTATTTTTTTCGTGCTAG", "fitted relative affinity [z-score]": 0.653}
{"Oligonucleotide": "TTAGGTTCCGGTTCCGGTTAGTGCTAG", "fitted relative affinity [z-score]": 4.57}
{"Oligonucleotide": "GACGGACTGGACTATCGGCACGTGCTA", "fitted relative affinity [z-score]": -0.611}
{"Oligonucleotide": "GACGGTCTCGACACTGGGGACGTGCTA", "fitted relative affinity [z-score]": 1.04}
{"data": "Block 2", "target": "Histone acetyltransferase KAT6A, both winged helices, GST fusion (KAT6A, Homo sapiens, UniProt Q92794, residues 1-181)", "technique": "protein binding microarray", "molecule type": "double-stranded DNA, one strand shown", "matrix": "in vitro", "tested at": "not given", "setting": "8-mer, flanks averaged, mean of 2 arrays, mostly near background", "relative to": "not given", "reading": "higher = stronger binding", "Target sequence (chain)": "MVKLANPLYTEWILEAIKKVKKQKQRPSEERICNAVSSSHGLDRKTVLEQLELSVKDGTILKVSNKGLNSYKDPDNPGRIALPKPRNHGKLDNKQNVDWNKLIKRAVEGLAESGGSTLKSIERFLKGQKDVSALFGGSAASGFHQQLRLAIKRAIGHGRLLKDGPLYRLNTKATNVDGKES"}
{"Oligonucleotide": "GCGGGCCA", "E-score": 0.191}
{"Oligonucleotide": "AGTAACGA", "E-score": -0.0878}
{"Oligonucleotide": "CTGGCTGC", "E-score": -0.0649}
{"Oligonucleotide": "CTGCTGCA", "E-score": -0.0929}
{"Oligonucleotide": "CATTTGAG", "E-score": -0.166}
{"Oligonucleotide": "TAACTTCA", "E-score": -0.0979}
{"Oligonucleotide": "AGCTGCTC", "E-score": -0.144}
{"Oligonucleotide": "CCAACCAG", "E-score": -0.133}
{"Oligonucleotide": "ATTAATCG", "E-score": 0.0705}
{"Oligonucleotide": "CACGTCGG", "E-score": 0.137}
{"Oligonucleotide": "CCATCGGG", "E-score": 0.0709}
{"Oligonucleotide": "CACTCGAG", "E-score": -0.141}
{"Oligonucleotide": "CGGGCGAG", "E-score": 0.151}
{"Oligonucleotide": "TAATCCAA", "E-score": -0.218}
{"Oligonucleotide": "GTGGGGGA", "E-score": -0.155}
{"Oligonucleotide": "CGGGTCAC", "E-score": 0.194}
{"Oligonucleotide": "ATTACCTC", "E-score": -0.155}
{"Oligonucleotide": "TCTCGGAA", "E-score": 0.0153}
{"Oligonucleotide": "CATACTCG", "E-score": 0.112}
{"Oligonucleotide": "ATTACTAA", "E-score": -0.0279}
{"Oligonucleotide": "ATGGTCGC", "E-score": 0.165}
{"Oligonucleotide": "CAAGTAGC", "E-score": -0.26}
{"Oligonucleotide": "CGTCAGAC", "E-score": 0.0134}
{"Oligonucleotide": "AAAACCCA", "E-score": -0.0999}
{"Oligonucleotide": "ATCGGCCA", "E-score": 0.137}
{"data": "Block 3", "target": "Centromere-binding protein 1, full length, His-tagged (CBF1, Saccharomyces cerevisiae, UniProt P17106, residues 1-351)", "technique": "competition protein-binding microarray", "molecule type": "double-stranded DNA, one strand shown", "matrix": "in vitro", "tested at": "2 µM", "setting": "whole 60-bp probe, lowest competitor level", "added": "Pho4 competitor, 0.05 µM", "reading": "higher = stronger binding", "constant ends, left off below": "… GTCTTGATTCGCTTGACGCTGCTG", "chain of UniProt P17106 (whole entry, looked up)": "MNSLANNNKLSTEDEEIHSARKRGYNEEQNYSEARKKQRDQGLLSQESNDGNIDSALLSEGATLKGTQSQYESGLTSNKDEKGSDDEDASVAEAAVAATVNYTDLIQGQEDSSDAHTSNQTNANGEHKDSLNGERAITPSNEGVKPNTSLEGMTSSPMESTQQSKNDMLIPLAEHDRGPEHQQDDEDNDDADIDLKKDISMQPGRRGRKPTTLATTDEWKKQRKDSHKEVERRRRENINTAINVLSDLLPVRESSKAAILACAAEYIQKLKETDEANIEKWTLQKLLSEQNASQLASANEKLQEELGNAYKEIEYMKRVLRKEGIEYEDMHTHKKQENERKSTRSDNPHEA"}
{"Oligonucleotide": "CTTAACGGCCTTGTTGGTGTGACGCTCACCTTGCTC", "fluorescence intensity [a.u.]": 63.5}
{"Oligonucleotide": "CTCACTCAGTACCATTACGTGTGAAAACTCCGCTGG", "fluorescence intensity [a.u.]": 73.8}
{"Oligonucleotide": "GTCTTGTCTCATTGTCACTTGACTTTCCCCACTTCA", "fluorescence intensity [a.u.]": 147}
{"Oligonucleotide": "CTATTTTTATGAATTCCGCGGGATTCCTCTATATCT", "fluorescence intensity [a.u.]": 77.2}
{"Oligonucleotide": "CTAACGAAGGTTTGGAACGTGGGTGACAAGCCAAGT", "fluorescence intensity [a.u.]": 81.1}
{"Oligonucleotide": "CTAACGAAGGTTTGGCCAGTGGGTGACAAGCCAAGT", "fluorescence intensity [a.u.]": 64.7}
{"Oligonucleotide": "AGATACAAAGTGTCCCACGGGCCAGTTTTGGCTTTA", "fluorescence intensity [a.u.]": 56.3}
{"Oligonucleotide": "GCCTGGGTGGCGGGCTATGTGGTGAATGCAGAGGGT", "fluorescence intensity [a.u.]": 71.4}
{"Oligonucleotide": "CTTCTGTAAATTTGCATAGTGGGTGGACGCGCCCCG", "fluorescence intensity [a.u.]": 76.4}
{"Oligonucleotide": "CTTTCCCGATCTTTTCACGTGAATTTAGCACATTTG", "fluorescence intensity [a.u.]": 932}
{"Oligonucleotide": "AAATTACTAAGTTGGTGTGTGGGTGACGCCGTATGA", "fluorescence intensity [a.u.]": 78.6}
{"Oligonucleotide": "ACTACGAGGGCCCTGTTCGTGGGACAGATTTCCATC", "fluorescence intensity [a.u.]": 48.7}
{"Oligonucleotide": "AGGTAGATCTCTACACGTGTGCAAGCGCATAACAAT", "fluorescence intensity [a.u.]": 759}
{"Oligonucleotide": "AGGCTCTTTCACTTCAGCATGACAGTAGTCCACTCT", "fluorescence intensity [a.u.]": 71.7}
{"Oligonucleotide": "TGCGCAACAACTTTTCACGTGGAGTTATGTCTAGAA", "fluorescence intensity [a.u.]": 548}
{"Oligonucleotide": "TGCCATCATCAATTGCACGTTTTCAAGTATTTATAA", "fluorescence intensity [a.u.]": 193}
{"Oligonucleotide": "AAATTACTAAGTTGTCACAAGACTTACCCCGTATGA", "fluorescence intensity [a.u.]": 123}
{"Oligonucleotide": "TGCCTCTTTTTTCTACACATGCAGTGTTAAATCCCA", "fluorescence intensity [a.u.]": 105}
{"Oligonucleotide": "TACTATTATTAGACTTCATTACTGAGTTTATTAGTT", "fluorescence intensity [a.u.]": 93.4}
{"data": "Block 4", "target": "RNA binding protein fox-1 homolog 2, RRM domain, GST-SBP tag (RBFOX2, Homo sapiens, UniProt O43251-10, residues 100-194)", "technique": "RNA Bind-n-Seq", "molecule type": "RNA", "matrix": "in vitro", "tested at": "365 nM", "setting": "natural RNA segment, single round, ends assumed", "relative to": "no-protein control", "reading": "higher = stronger binding", "constant ends, left off below": "GGGAGUUCUACAGUCCGACGAUC … UGGAAUUCUCGGGUGCCAA", "Construct (chain)": "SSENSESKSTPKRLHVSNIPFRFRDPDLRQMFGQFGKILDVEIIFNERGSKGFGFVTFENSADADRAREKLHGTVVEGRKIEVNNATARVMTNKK"}
{"Oligonucleotide": "UGUUGUCUUUCCUGUCCCAACCUACACGGGUCUCUGUAACAUUCCACUAUUCAAACUUCCAAGGAGUCCCACUCUCAGGGGGCGGGGCACAGAGCUAAAAUCUCCAAAAG", "RBNS enrichment (R)": 0.388}
{"Oligonucleotide": "AAAUGCUAGCUUGGACAACUGAAAAGUCACAUCACAGCUGGCAUUCUGGGGGCUACCAAAACACCCCUUCUGGAGUAGAAGCUGCUGGAAGGCAGGCCUGAGCCAUUCAC", "RBNS enrichment (R)": 0.206}
{"Oligonucleotide": "UCCAGUGGCUUCUCCUUUCUGUCAAGACUUAGCCCCGCUGAGAUGCCCUUCUGCUCCAGCUUGCUGGAUGUUACCUGUCCUCUUCCCUCCACAAGUCUUGGCCCUUAACC", "RBNS enrichment (R)": 0.395}
{"Oligonucleotide": "AAGUUCUGAGAGAUGGGGAGCGGCCCCCAGCCCCCGCCCCAUCCUGUCAGGUUGGUGCGGAAGGGCUAGGAUCCUUGCCGCCCUUCCCUUCGGUGCCGGAACCCUCCCAA", "RBNS enrichment (R)": 0.179}
{"Oligonucleotide": "UCAGUUACCCUGAACAUGGGGAGUGCAUCACGAUAGGGUGUGGCUGACCUCCAUUGCUUACCUGCCUGAGUAGCCAGCUGCAUCCAUCUCUCAAAGAUACCUAGCCAGGC", "RBNS enrichment (R)": 0.641}
{"Oligonucleotide": "GCCUCAGAGCAGAAGAAACAAACCUGCUGUCUUGUUGGCCCAGUGUUUCAGUUUUGAAGUGUGUACUUUCUCCUCUGUGUGUGCCAAUUACAUAUUAGAGAACAAGGAAU", "RBNS enrichment (R)": 0.394}
{"Oligonucleotide": "GCAAUUACGUCAUCACCCAGCUGAUUCCGGGUGGUUGGCAAACUCAUCGUGUCUGUCCUGAGAGGCUCCACAAUGCCCACCCGCAUCGCCAUUCUGUAGUCUUCAGGGUC", "RBNS enrichment (R)": 0.397}
{"Oligonucleotide": "CCUGACUUCCCUCAGGAAGUCUUUCUGUCUUUCUCCAUCAGUCUGAAAGCCUUAGUUCCCACAGAGGACGGAUCUGUCACUCCUAGGGGCUGGGCAUAUGUCGGCCUCUU", "RBNS enrichment (R)": 0.188}
{"note": "Repeated from above (block 1):"}
{"Oligonucleotide": "TTAGGACTGCGTCTCGGTTAGTGCTAG", "fitted relative affinity [z-score]": 0.667}
{"Oligonucleotide": "GACGGTCTCGACACTGGGGACGTGCTA", "fitted relative affinity [z-score]": 1.04}
{"Oligonucleotide": "TTAGGACTCGACACTGGGTTAGTGCTA", "fitted relative affinity [z-score]": -0.527}
{"Oligonucleotide": "CTCTGTTTATGTCTGGGTATGTGCTAG", "fitted relative affinity [z-score]": 0.52}
{"Oligonucleotide": "GACGGTATCGACACTGGGGACGTGCTA", "fitted relative affinity [z-score]": 3.85}
{"Oligonucleotide": "TCACCTCTGGGATCCCAGACTGTGCTA", "fitted relative affinity [z-score]": -0.153}
{"Oligonucleotide": "CATTTTATGGTATTTTTTTCGTGCTAG", "fitted relative affinity [z-score]": 0.653}
{"Oligonucleotide": "TCACATATAATTTTGTCACTGTGCTAG", "fitted relative affinity [z-score]": 0.361}
